Results collected from several papers.
Each line is one published result; not all experiments were run side by side. Numbers after ± are the reported error.

SMILES | test | test system | setting | how to read | quantity | value
CC1(C)CCC(CN2CCN(c3ccc(C(=O)NS(=O)(=O)c4ccc(NCC5CCOCC5)c([N+](=O)[O-])c4)c(Oc4cnc5[nH]ccc5c4)c3)CC2)=C(c2ccc(Cl)cc2)C1 | cell killing | canine blood CD3+ T cells, dog 33 | 24 h |  | EC50 | 56 nM
Cn1cncc1-c1c(F)cncc1NC(=O)c1c(N)nn2cc(F)cnc12 | tumour growth | mice CTG-3021 gastric xenograft | ARID1A-mutated PK-TGI model |  | rate constant k1 | 0.0003 h⁻¹
CN[C@H](CC(C)C)C(=O)N[C@H]1C(=O)N[C@@H](CC(N)=O)C(=O)N[C@H]2C(=O)N[C@H]3C(=O)N[C@H](C(=O)N[C@H](C(=O)O)c4cc(O)cc(O)c4-c4cc3ccc4O)[C@H](O)c3ccc(c(Cl)c3)Oc3cc2cc(c3O[C@@H]2O[C@H](CO)[C@@H](O)[C@H](O)[C@H]2O[C@H]2C[C@](C)(N)[C@H](O)[C@H](C)O2)Oc2ccc(cc2Cl)[C@H]1O | microbial abundance | human fecal microbiota ex vivo | 100 µg/mL, 48 h | baseline: DMSO | number of species decreased | 53
C[C@H](NC(=O)c1c(C(F)F)nn(C)c1Oc1cccc(C(F)(F)F)c1)c1ccc(C(=O)O)cc1 |  | human, advanced tumours | 250 mg, irRECIST |  | progressive disease | 37.5%
C[C@@H](NC(=O)N1C(=O)[C@H](Cc2ccnc(N)c2)[C@H]1C(=O)O)C1CCCCC1 |  | human | iv infusion, 2.25 mg/kg/h, 24 h, unit not given | baseline: baseline | PT Emax | 1.05
CC(C)n1c(C2CCNCC2)nc2c([N+](=O)[O-])c(Br)c(Br)cc21 |  | patients with AML, bone marrow | all dose levels, ≥50% reduction from baseline |  | patients with blast reduction | 24%
N#Cc1ccc2c(-c3ccncc3)c(-c3ccc(F)cc3)nn2c1 | kinase binding, competitor, MIB/MS competition, refers to: HSL1 | Candida albicans cell lysate | 10 µM | baseline: DMSO | log2 fold change | 0.132
C[C@@H]1COCCN1c1cc([C@]2(O)C[C@H]3CC[C@@H](C2)O3)c2cnn(-c3cc[nH]n3)c2n1 |  | mice, Granta-519 xenograft | 30 mg/kg once daily for 2 days, day 14 |  | tumour growth inhibition | 49.6 ± 3.3%
Cc1noc(C)c1-c1cc(C(O)(c2ccccn2)c2ccccn2)c2nc(C3CC3)[nH]c2c1 | refers to: CCR2 expression | human patients | dose not given, day 8, 192 h |  | maximum inhibition | 47.3%
CC(C)c1c(C(=O)Nc2ccccc2)c(-c2ccccc2)c(-c2ccc(F)cc2)n1CC[C@@H](O)C[C@@H](O)CC(=O)O |  | cynomolgus monkey, female, serum | 40 mg/kg or 25 mg/kg, day 86, 2064 h |  | total cholesterol | 86 mg/dL
Oc1nc2nonc2cc1Nc1c(F)c(F)c(F)c(F)c1F |  | obese C57BL/6J mice, Western diet 19 weeks | oral gavage, dose not given, once daily |  | body fat loss | ~20%
COc1cc(Nc2ncc3c(n2)-c2ccc(Cl)cc2C(c2c(F)cccc2OC)=NC3)ccc1C(=O)O |  | mouse, NB-1643 neuroblastoma xenograft | 2.6 mg/kg | direction not given | median response score | 0
Oc1ccc(Br)cc1C=NCCN1CCOCC1 | superoxide scavenging |  | 160 µM |  | inhibition | 34.7%
Cc1cnc(N2CC3(CCOCC3)C2)c(C(=O)Nc2ccc(C(=O)N3CCc4cc(C(=O)Nc5c(C)cccc5F)sc4-c4ccccc43)cc2)c1 | refers to: Mucin | human RSV infection, nasal wash | dose not given, AUC, ITT-IS population | baseline: placebo | inhibition | 87%
O=C(O)CNC(=O)Cc1ccccc1 |  | ventricular cardiomyocytes, C57BL/6 mouse | dose not given, 0.08 s |  | sarcomere length | 1.72 µm
Cc1n[nH]c2ccc(-c3cc(OC[C@@H](N)Cc4ccccc4)cnc3-c3ccoc3)cc12 | kinase binding, competitor, MIB/MS competition, refers to: CEK1 | Candida albicans cell lysate | 1 µM | baseline: DMSO | log2 fold change | -0.317
CCc1c(C)nc(-c2ccc(Cl)s2)nc1Nc1ccc(CC(=O)O)cc1 |  | C57BL/6J mice, MCD diet | intraperitoneal, 0.3 mg/kg daily, MCD diet 6 weeks, dosed last two | baseline: vehicle | serum AST | decreased
CO[C@H]1CC[C@H](N2C(=O)CNc3ncc(-c4ccc(C(C)(C)O)nc4)nc32)CC1 | flow cytometry | stimulated B cells, human, blood | 45 mg single dose, 1.5 h, median | baseline: baseline | pS6RP change from baseline | -80.4%

SMILES | test | test system | setting | how to read | quantity | value
CC(=O)NCC(=O)NCC(=O)N[C@H](C(=O)N[C@@H](Cc1ccc(O)cc1)C(=O)N[C@@H](CO)C(=O)N[C@H]1CSSC[C@@H](C(=O)N[C@@H](CCCNC(=N)N)C(=O)N2CCC[C@H]2C(=O)N[C@@H](CCC(N)=O)C(=O)N[C@@H](CCCNC(=N)N)C(=O)NCC(=O)NCCC(=O)N[C@@H](CCCCNC(=O)CN(CC(=O)NCCCC[C@H](NC(=O)CCNC(=O)CNC(=O)[C@H](CCCNC(=N)N)NC(=O)[C@H](CCC(N)=O)NC(=O)[C@@H]2CCCN2C(=O)[C@H](CCCNC(=N)N)NC(=O)[C@@H]2CSSC[C@H](NC(=O)[C@H](CO)NC(=O)[C@H](Cc3ccc(O)cc3)NC(=O)[C@@H](NC(=O)CNC(=O)CNC(C)=O)[C@@H](C)O)C(=O)N[C@@H](Cc3c[nH]cn3)C(=O)N[C@@H](Cc3ccccc3)C(=O)NCC(=O)N[C@@H](C)C(=O)N[C@@H](CC(C)C)C(=O)N[C@@H]([C@@H](C)O)C(=O)N[C@@H](Cc3c[nH]c4ccccc34)C(=O)N[C@@H](C(C)C)C(=O)N2)C(N)=O)C(=O)CCN)C(N)=O)NC(=O)[C@H](C(C)C)NC(=O)[C@H](Cc2c[nH]c3ccccc23)NC(=O)[C@H]([C@@H](C)O)NC(=O)[C@H](CC(C)C)NC(=O)[C@H](C)NC(=O)CNC(=O)[C@H](Cc2ccccc2)NC(=O)[C@H](Cc2c[nH]cn2)NC1=O)[C@@H](C)O |  | healthy BALB/c mice | subcutaneous, 0.16 mg/kg, 4 d, single dose |  | reticulocytes | 5.8%
CC(C)NCC(O)c1ccc(O)c(O)c1 (centres unmarked) |  | ventricular cardiomyocytes, C57BL/6 mouse | dose not given, 0 s |  | sarcomere length | 1.72 µm
CC(C)[C@H](NC(=O)[C@H](Cc1ccc(O)cc1)NC(=O)[C@H](Cc1ccc(O)cc1)NC(=O)[C@@H]1CCCN1C(=O)[C@H](CCC(=O)O)NC(=O)[C@H](CCC(=O)O)NC(=O)[C@H](Cc1c[nH]c2ccccc12)NC(=O)[C@@H]1CCCN1C(=O)[C@@H](NC(=O)[C@H](CCC(N)=O)NC(=O)c1ccc2c(c1)C(=O)OC21c2ccc(O)cc2Oc2cc(O)ccc21)C(C)C)C(=O)N[C@H](C(=O)N[C@@H](CCCCN)C(=O)N[C@@H](CCCCN)C(=O)N[C@@H](CO)C(=O)N[C@@H](CO)C(=O)NCC(=O)NCC(N)=O)C(C)C | added benefit of NERVE | human head and neck surgery, nerves | 500 mg, much added benefit | baseline: white light | share of responses | 28.6%
CCN(Cc1nc2c(N)nc3cc(-c4cc[nH]n4)ccc3c2[nH]1)C(C)=O | immunohistochemistry, refers to: PD-L1+ immune cells | patients with advanced solid tumours, non-injected tumour lesions | dose not given, monotherapy |  | patients with increased cells | 83%
C[C@H](Oc1ccc(Br)cc1-c1ccon1)C(=O)O | first response latency | human, tibialis anterior muscle | 400 mg, 30 Hz, single ascending dose |  | difference from placebo | 0%
NC(=O)c1cnc2[nH]ccc2c1N[C@@H]1[C@@H]2CC3C[C@H]1C[C@@](O)(C3)C2 | flow cytometry, refers to: CD4+ effector memory T cells | Japanese healthy subjects, peripheral blood | oral, 10 mg twice daily, day 7 |  | change from baseline | 0.35%
Cc1cc(-c2nnc(N)nc2-c2ccc(F)cc2)cc(Cl)n1 | NanoString, refers to: M2.core.Becker.IO signature | human mCRPC, peripheral blood | dose not given, 2 or 4 weeks | baseline: baseline, direction not given | GSVA score change | 0.173
CCc1oc2ccccc2c1C(=O)c1cc(Br)c(O)c(Br)c1 |  | mouse, acute hyperuricaemia model | 1 mg/kg |  | decrease in serum uric acid | 17.3%
C[C@H]1C[C@H]2CSC(N)=N[C@@]2(c2nc(NC(=O)c3ccc(OC(F)F)cn3)cs2)CO1 | refers to: Aβ1-40 | healthy adults, plasma | 275 mg once daily, day 14 | baseline: placebo | percent change from baseline | -87.4%
CN(C)C(=O)c1cc2cnc(Nc3ccc(N4CCNCC4)cn3)nc2n1C1CCCC1 | RNA sequencing, refers to: HALLMARK_INTERFERON_ALPHA_RESPONSE | MB002 tumour | concentration not given | baseline: vehicle, direction not given | GSEA enrichment score | 0.231
CCN1CCN(Cc2ccc(Nc3ncc(F)c(-c4cc(F)c5nc6n(c5c4)[C@H](C)CCC6)n3)nc2)CC1 |  | human advanced solid tumours | 500 mg, phase Ia monotherapy RECIST 1.1 |  | partial response | 16.7%
OC(CCN1CCCCC1)(c1ccccc1)C1CC2C=CC1C2 (centres unmarked) | resting-state EEG | healthy elderly humans | oral, 4 mg, eyes open, LS mean | baseline: baseline | change in EEG Alpha1-power Pz-O2 | -27.9%
CCOCc1nc(O)c(-c2nnc(Cc3ccc(Cl)cn3)o2)c(O)c1-c1c(OC)cccc1OC |  | anaesthetised rat | intravenous infusion, 1 µg/kg/min for 15 min | baseline: baseline | heart rate change | 2 ± 0.5%
CN[C@@H]1COc2c(S(=O)(=O)NC(=O)Nc3c4c(cc5c3CCC5)CCC4)cnn2C1 | refers to: IL-1β | human participants, whole blood ex vivo | 900 mg twice daily, multiple doses, 8 h, added: LPS/ATP | baseline: baseline | inhibition | 99.7%
O=C(COc1ccc(Cl)cc1)NC12CC(c3nnc([C@H]4C[C@@H](OC(F)(F)F)C4)o3)(C1)C2 |  | healthy human, PBMC | oral, 45 mg single dose, day 1, 4 h post-dose, median, added: sodium arsenite ex vivo | baseline: baseline | CHAC1 mRNA change | -20.4%
N#Cc1ccn2c(-c3ccncc3)c(-c3ccc(F)cc3)nc2c1 | kinase binding, competitor, MIB/MS competition, refers to: MKK2 | Candida albicans cell lysate | 100 nM | baseline: DMSO | log2 fold change | -0.146
CC/C=C\C/C=C\C/C=C\C/C=C\C/C=C\CCCC(=O)O |  | mouse, high-fat diet and streptozotocin diabetes | dose not given, 19 weeks |  | reduction of mesangial expansion | 24 ± 11%

Excerpt of the above:
SMILES | test | test system | setting | how to read | quantity | value
Oc1ccc(Br)cc1C=NCCN1CCOCC1 | superoxide scavenging |  | 160 µM |  | inhibition | 34.7%
CCN(Cc1nc2c(N)nc3cc(-c4cc[nH]n4)ccc3c2[nH]1)C(C)=O | immunohistochemistry, refers to: PD-L1+ immune cells | patients with advanced solid tumours, non-injected tumour lesions | dose not given, monotherapy |  | patients with increased cells | 83%
CCOCc1nc(O)c(-c2nnc(Cc3ccc(Cl)cn3)o2)c(O)c1-c1c(OC)cccc1OC |  | anaesthetised rat | intravenous infusion, 1 µg/kg/min for 15 min | baseline: baseline | heart rate change | 2 ± 0.5%
CC(C)c1c(C(=O)Nc2ccccc2)c(-c2ccccc2)c(-c2ccc(F)cc2)n1CC[C@@H](O)C[C@@H](O)CC(=O)O |  | cynomolgus monkey, female, serum | 40 mg/kg or 25 mg/kg, day 86, 2064 h |  | total cholesterol | 86 mg/dL
CC/C=C\C/C=C\C/C=C\C/C=C\C/C=C\CCCC(=O)O |  | mouse, high-fat diet and streptozotocin diabetes | dose not given, 19 weeks |  | reduction of mesangial expansion | 24 ± 11%
